Measured values pooled from the literature.
± marks the error that the study gave.

With `COc1ncc(-c2nc3c(n2C(C)C)[C@H](c2ccc(Cl)cc2)N(c2cc(Cl)cn(C)c2=O)C3=O)c(OC)n1` the median half-life was 18.8 h (human patients, plasma; oral, 400 mg, high-dose arm, cycle 1 day 1).
`CN(CCC(=O)O)C(=O)c1ccc2c(c1)CC[C@@H]1[C@@H]2CC[C@]2(C)C(c3cncc(F)c3)=CC[C@@H]12` gave an indirect bilirubin of 0.44 mg/dL (premenopausal women with endometriosis pain, serum; 60 mg twice daily, end of treatment, completers, median).
`C[C@@H](NC(=O)N1C(=O)[C@H](Cc2ccnc(N)c2)[C@H]1C(=O)O)C1CCCCC1` — result for “time to steady state”: 1.5 h (UPLC-MS/MS; healthy adult Chinese volunteers, plasma; continuous intravenous infusion, 2.25 mg/kg/h, day 1 of 5-day infusion, median).
`Cc1cc(NC2CCN(C(=O)OC3CCN(C(=O)/C=C/CN(C)C)C3)CC2)n2ncc(C(C)C)c2n1` (stereo not drawn) — result for “patients with TEAE”: 4% (CTCAE v4.0, item: Hyponatremia; patients with advanced solid tumours; oral, dose not given, all schedules, grade 3 or higher).
Under “mean plasma concentration”, `CCN1CCN(Cc2ccc(NC(=O)c3ccc(C)c(NC(=O)c4cncc(-c5cccs5)c4)c3)cc2C(F)(F)F)CC1` is recorded as 68 ng/mL (LC-MS/MS; C57BL/6 mouse, plasma; intraperitoneal, 15 mg/kg single dose, 6 h).
Under “terminal elimination rate constant”, `CC(C)(C)c1ccc(O)c(CN(Cc2cc(C(C)(C)C)ccc2O)C2CCC(NC(N)=O)CC2)c1` (stereo not drawn) is recorded as 7.78e-05 s⁻¹ (C57BL/6 mice, male, plasma; intraperitoneal, 5 mg/kg, single dose).
The anaemia incidence of `CNCc1ccc(-c2[nH]c3cc(F)cc4c3c2CCNC4=O)cc1` is reported as 0% (patients; oral, 600 mg twice daily, grade 4).
`CC(=O)N[C@H]1[C@H]([C@H](O)[C@H](O)CO)OC(C(=O)O)=C[C@@H]1N=C(N)N` gave a recovery of 101% (HPLC; HBSS; 10 µg/mL, time not given, three freeze-thaw cycles).
`CN1CC[C@@H](NC(=O)Nc2ccc(C#N)cc2)C[C@@H]1c1nc2ccccc2[nH]1` — result for “peripheral volume Vp/F”: 239 L (human cancer patients, plasma; oral, dose not given, population PK base model).
`CN(CCCN1CCN(C(=O)CN2CCN(CC(=O)[O-])CCN(CC(=O)[O-])CCN(CC(=O)[O-])CC2)CC1)c1ccc2nccc(C(=O)NCC(=O)N3CC(F)(F)C[C@H]3C#N)c2c1.[68Ga+3]` has an uptake of 0.3 ± 0.1 %IA/g (mice, HT-1080.hFAP and HT-1080 wild-type xenografts, stomach; iv, 500 pmol, 1 h post injection).
Under “peripheral edema incidence (all grades)”, `CNC(=O)c1ccc(-c2cnc3ncc(Cc4ccc5ncccc5c4)n3n2)cc1F` is recorded as 40% (CTCAE v4.0, any causality; human cancer patients; oral, dose escalation).
`O=C(Nc1cnccc1Cl)N1CCN(Cc2ccc3c(c2)OC(F)(F)O3)CC1` — result for “volunteers with adverse event”: 0% (item: Dizziness; healthy elderly humans; 100 mg once daily, 10 days).
For `CC(C)NCC(O)c1ccc(NS(C)(=O)=O)cc1` (racemic), the heart rate was 227 ± 0.8 beats/min (male Hartley guinea pigs, anaesthetized; intravenous, 3 mg/kg group, baseline before infusion).
`C[C@@H](N)C1CCN(S(=O)(=O)c2cccc3cnccc23)CC1`: “participants with TEAEs” 33.3% (healthy volunteers; 75 mg, fasted).
For `COc1ccnc(C(=O)NC(CO)C(=O)O)c1O` (racemic), the DT50 was 105 days (aerobic soil incubation; soil; worst-case terminal value, for exposure modelling).
With `O=C(NCc1ccc(CN2CCCCC2)cc1)c1csc2nc[nH]c(=O)c12` the EC50 was > 100 µM (haemolysis; human red blood cells; 1 h, 37 °C).
Under “reticulocyte count change”, `CN(CCC#N)C1CCN(C(=O)Cn2cc(NC(=O)c3cnn4cccnc34)c(-c3cc(Cl)ccc3OC(F)F)n2)CC1` is recorded as 6 10⁹/L (human, single ascending dose; 0.15 mg, day 4; reference: baseline).
For `COc1c(N2C[C@@H]3CCCN[C@@H]3C2)c(F)cc2c(=O)c(C(=O)O)cn(C3CC3)c12`, the heart rate was 242 ± 1 beats/min (male Hartley guinea pigs, anaesthetized; intravenous, 1 mg/kg group, baseline before infusion).
`C=CC(=O)N(C)CCOc1c(N)ncnc1-c1cc(F)cc(NC(=O)c2ccc(C3CC3)cc2F)c1C` gave a Cmax of 24.8 ng/mL (human; oral, 15 mg single dose).
`Cn1cc(Nc2nccc(-c3ccc4c(c3)CN(C3COC3)CC[C@H]4NC(=O)c3cn(C(C)(C)C)nn3)n2)cn1` — result for “percent change from baseline”: 7.3% (item: NK cell count; human, clinical trial, whole blood; 150 mg twice daily, follow-up).
Under “trough plasma concentration”, `CCC(C)n1ncn(-c2ccc(N3CCN(c4ccc(OCC5COC(Cn6cncn6)(c6ccc(Cl)cc6Cl)O5)cc4)CC3)cc2)c1=O` (stereo not drawn) is recorded as 29.5 ng/mL (human, plasma; oral, dose not given, day 11 predose, median).
`C[C@@H]1CN(CC(=O)N2CC(C)(C)c3ncc(Cc4ccc(F)cc4)cc32)[C@@H](CN2CCOC[C@H]2C)CN1` has an oral bioavailability of 4 ± 0.87% (male cynomolgus monkey; oral, 15 mg/kg).
The tissue concentration of `O=C1c2ccncc2C(=O)c2c1[nH]c1ccccc21` is reported as 0.071 ± 0.029 nmol/mg (Sprague-Dawley rat, female, right ventricle; oral, 5 mg/kg, 24 h).
`CCN1CCN(Cc2ccc(Nc3ncc(F)c(-c4cc(F)c5nc6n(c5c4)[C@H](C)CCC6)n3)nc2)CC1` gave a Tmax of 3.97 h (human, plasma; 50 mg single dose, median).
Under “urinary phosphate excretion change”, `Cc1ccc([C@@H]2O[C@H](CO)[C@@H](O)[C@H](O)[C@H]2O)cc1Cc1ccc(-c2ccc(F)cc2)s1` is recorded as -154 mg (item: inorganic phosphorus; Japanese type 2 diabetes patients; 400 mg, day 1, 24 h urine collection; reference: baseline).
With `Cc1ccc(CN2CCN(C(=O)/C=C/c3ccc(O)cc3O)CC2)cc1` the CLint scaled was 46.1 mL/min/kg (human; 1 µM).
For `O=C(COc1ccc(Cl)cc1)NC12CC(c3nnc([C@H]4C[C@@H](OC(F)(F)F)C4)o3)(C1)C2`, “adverse event incidence” read 22.2% (item: Fatigue; human; 200 mg once daily, 28 (unit not given)).
`CC[C@H](C)[C@H](NC(=O)[C@H](Cc1ccccc1)NC(=O)[C@H](CCC(=O)O)NC(=O)[C@H](CCCCNC(=O)COCCOCCNC(=O)COCCOCCNC(=O)CC[C@H](NC(=O)CCCCCCCCCCCCCCCCC(=O)O)C(=O)O)NC(=O)[C@H](C)NC(=O)[C@H](C)NC(=O)[C@H](CCC(N)=O)NC(=O)CNC(=O)[C@H](CCC(=O)O)NC(=O)[C@H](CC(C)C)NC(=O)[C@H](Cc1ccc(O)cc1)NC(=O)[C@H](CO)NC(=O)[C@H](CO)NC(=O)[C@@H](NC(=O)[C@H](CC(=O)O)NC(=O)[C@H](CO)NC(=O)[C@@H](NC(=O)[C@H](Cc1ccccc1)NC(=O)[C@@H](NC(=O)CNC(=O)[C@H](CCC(=O)O)NC(=O)C(C)(C)NC(=O)[C@@H](N)Cc1cnc[nH]1)[C@@H](C)O)[C@@H](C)O)C(C)C)C(=O)N[C@@H](C)C(=O)N[C@@H](Cc1c[nH]c2ccccc12)C(=O)N[C@@H](CC(C)C)C(=O)N[C@H](C(=O)N[C@@H](CCCNC(=N)N)C(=O)NCC(=O)N[C@@H](CCCNC(=N)N)C(=O)NCC(=O)O)C(C)C` — result for “heart rate change”: 0 beats/min (hypoglycaemic clamp; type 2 diabetes patients; dose not given, nadir plasma glucose 5.5 mmol/L).
`Cc1c(Cl)c(C)[n+]([O-])c(Cl)c1-c1noc(-c2cc(O)c(O)c([N+](=O)[O-])c2)n1` — result for “TEAEs causing discontinuation”: 0% (healthy Chinese subjects; oral, 50 mg, 10 days).
`[18F]c1ccc(-c2ccc3c(c2)[nH]c2ccncc23)cn1` gave an uptake of 0.287 ± 0.097 SUV (ex vivo biodistribution; APP/PS1 Alzheimer mice, caudate nucleus; intravenous, 30 min).
For `CO[C@@H]1[C@H](OC(=O)N2CC(CCN3CCOCC3)C2)CC[C@]2(CO2)[C@H]1[C@@]1(C)O[C@@H]1CC=C(C)C`, “systolic blood pressure” read -0.7 ± 15.9 mmHg (humans; subcutaneous, 1.8 mg twice weekly for 4 weeks, day 28; reference: baseline).
Under “adverse event duration”, `CC(=O)N(C)[C@H]1CCN(C(=O)c2cnc3c(c2)C[C@](C)(c2ccc(F)cc2)N3)C1` is recorded as 22 days (item: creatine kinase increased; human; oral, 30 mg once daily).
Under “patients with adverse event”, `COc1cc(Nc2ncc3c(n2)-c2ccc(Cl)cc2C(c2c(F)cccc2OC)=NC3)ccc1C(=O)O` is recorded as 8% (item: Diarrhea, grade 2; cancer patients, phase 1/2; oral, dose not given, with: pembrolizumab).
`N#Cc1ccc2c(c1)[C@H]1CCCN(C(=O)c3ccc4[nH]cnc4c3)[C@H]1C2`: “AUC(tau) at steady state” 155 µM·h (human, plasma; oral, 240 mg once daily).
`CCC(=O)N(CCC(c1ccc2c(c1)OCO2)c1ccccc1OC)Cc1ccccc1` (stereo not drawn) has a CHOL of 75.2 mg/dL (female athymic nude mouse, blood; i.p., 60 mg/kg twice daily, 14 days, group mean).
For `C[C@@H](Nc1cc(F)cc(F)c1)c1cc(C(=O)N(C)C)cc2c(=O)cc(N3CCOCC3)oc12`, “treatment-related serious adverse events” read 1.6% (item: alanine aminotransferase increased; patients with advanced solid tumours; oral, dose not given, dose finding phase I).
`C[C@@H]1CN(c2c(F)c(N)c3c(=O)c(C(=O)O)cn(C4CC4)c3c2F)C[C@H](C)N1` gave a heart rate of 236 ± 0.8 beats/min (male Hartley guinea pigs, anaesthetized; intravenous, 30 mg/kg group, baseline before infusion).
`O=C(O)C=Cc1ccc(O)c(OS(=O)(=O)O)c1`: CSF concentration “not detected” (human CSF; concentration not given, mean).
The SHBG level of `N#Cc1ccc2c(c1)[C@H]1CCCN(C(=O)c3ccc4[nH]cnc4c3)[C@H]1C2` is reported as 40.4 nmol/L (human males; 10 mg, day 15).
`CCN1/C(=C/C(C)=O)Sc2ccc(F)cc21` gave a heart rate of 114 ± 23 beats/min (cynomolgus monkey; oral, 10 mg/kg, 1 h post-dose).
For `O=S(=O)(O)Oc1ccc(CCO)cc1O`, CSF concentration read “not detected” (human CSF; concentration not given, mean).
`NC1(C(=O)N[C@@H](CCO)c2ccc(Cl)cc2)CCN(c2nc[nH]c3nccc2-3)CC1` — result for “incidence of maculopapular rash”: 0% (metastatic CRPC patients; 320 mg b.i.d., grade 3 to 4, treatment-related, with: enzalutamide 160 mg daily).
The dissolved amount of `C=CC(=O)N1CCC[C@@H](n2nc(-c3ccc(Oc4ccccc4)cc3)c3c(N)ncnc32)C1` is reported as 49.1% (USP type II dissolution; powder; 120 min, pH 1.2).
`COc1cc(C=O)ccc1O`: CSF concentration “not detected” (human CSF; concentration not given, mean).
The triglycerides of `Nc1ncnc2c1ncn2[C@H]1C[C@@H]2OP(=O)(O)OC[C@H]3O[C@@H](n4cnc5c(N)ncnc54)C[C@@H]3OP(=O)(O)OC[C@H]2O1` is reported as 1.71 ± 0.09 mmol/L (non-tumor-bearing mice, serum; intravenous, 1 mg/kg, toxicity study).
